Earlier results, collected from citations in different studies.
Lines come from different studies, so protocols differ. ± gives the spread as reported.
PCNA: Proliferating cell nuclear antigen (PCNA, Homo sapiens, UniProt P12004)

The chains behind the UniProt entries cited, without tags or fusion partners. Residues count along the entry.
UniProt P12004, whole entry: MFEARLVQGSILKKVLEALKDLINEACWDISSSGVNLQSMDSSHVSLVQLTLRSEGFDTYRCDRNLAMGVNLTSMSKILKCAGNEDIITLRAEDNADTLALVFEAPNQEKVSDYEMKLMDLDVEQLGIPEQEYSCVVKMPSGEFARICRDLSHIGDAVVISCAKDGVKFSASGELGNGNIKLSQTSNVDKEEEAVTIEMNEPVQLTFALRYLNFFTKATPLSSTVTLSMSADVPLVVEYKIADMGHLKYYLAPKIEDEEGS
UniProt P22629, 25-183 limits assumed: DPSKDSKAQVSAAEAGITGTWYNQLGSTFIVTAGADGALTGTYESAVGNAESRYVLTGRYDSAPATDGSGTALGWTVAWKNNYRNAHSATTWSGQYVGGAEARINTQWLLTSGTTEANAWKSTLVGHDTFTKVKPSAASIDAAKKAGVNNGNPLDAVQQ
UniProt P05106, 27-788 limits assumed: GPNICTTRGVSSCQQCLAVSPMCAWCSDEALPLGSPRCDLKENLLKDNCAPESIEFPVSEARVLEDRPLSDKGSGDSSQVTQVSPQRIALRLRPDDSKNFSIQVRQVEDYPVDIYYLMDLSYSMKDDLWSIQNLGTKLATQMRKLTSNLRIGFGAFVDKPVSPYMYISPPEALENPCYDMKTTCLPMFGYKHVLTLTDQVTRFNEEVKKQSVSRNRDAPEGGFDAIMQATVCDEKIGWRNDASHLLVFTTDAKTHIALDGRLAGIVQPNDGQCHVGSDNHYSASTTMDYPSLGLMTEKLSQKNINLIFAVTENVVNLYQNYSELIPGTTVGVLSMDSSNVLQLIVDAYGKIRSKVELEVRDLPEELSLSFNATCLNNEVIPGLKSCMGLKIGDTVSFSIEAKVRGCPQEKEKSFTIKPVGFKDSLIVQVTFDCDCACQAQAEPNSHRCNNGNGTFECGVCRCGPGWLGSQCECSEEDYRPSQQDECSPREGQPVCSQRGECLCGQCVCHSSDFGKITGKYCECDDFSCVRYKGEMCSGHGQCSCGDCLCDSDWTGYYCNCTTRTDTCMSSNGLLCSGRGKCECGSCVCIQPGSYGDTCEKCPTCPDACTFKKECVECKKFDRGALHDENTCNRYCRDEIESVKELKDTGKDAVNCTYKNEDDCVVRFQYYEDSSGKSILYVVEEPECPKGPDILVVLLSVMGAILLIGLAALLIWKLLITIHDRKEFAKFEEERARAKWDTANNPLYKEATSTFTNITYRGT
UniProt P06756, 31-889 limits assumed: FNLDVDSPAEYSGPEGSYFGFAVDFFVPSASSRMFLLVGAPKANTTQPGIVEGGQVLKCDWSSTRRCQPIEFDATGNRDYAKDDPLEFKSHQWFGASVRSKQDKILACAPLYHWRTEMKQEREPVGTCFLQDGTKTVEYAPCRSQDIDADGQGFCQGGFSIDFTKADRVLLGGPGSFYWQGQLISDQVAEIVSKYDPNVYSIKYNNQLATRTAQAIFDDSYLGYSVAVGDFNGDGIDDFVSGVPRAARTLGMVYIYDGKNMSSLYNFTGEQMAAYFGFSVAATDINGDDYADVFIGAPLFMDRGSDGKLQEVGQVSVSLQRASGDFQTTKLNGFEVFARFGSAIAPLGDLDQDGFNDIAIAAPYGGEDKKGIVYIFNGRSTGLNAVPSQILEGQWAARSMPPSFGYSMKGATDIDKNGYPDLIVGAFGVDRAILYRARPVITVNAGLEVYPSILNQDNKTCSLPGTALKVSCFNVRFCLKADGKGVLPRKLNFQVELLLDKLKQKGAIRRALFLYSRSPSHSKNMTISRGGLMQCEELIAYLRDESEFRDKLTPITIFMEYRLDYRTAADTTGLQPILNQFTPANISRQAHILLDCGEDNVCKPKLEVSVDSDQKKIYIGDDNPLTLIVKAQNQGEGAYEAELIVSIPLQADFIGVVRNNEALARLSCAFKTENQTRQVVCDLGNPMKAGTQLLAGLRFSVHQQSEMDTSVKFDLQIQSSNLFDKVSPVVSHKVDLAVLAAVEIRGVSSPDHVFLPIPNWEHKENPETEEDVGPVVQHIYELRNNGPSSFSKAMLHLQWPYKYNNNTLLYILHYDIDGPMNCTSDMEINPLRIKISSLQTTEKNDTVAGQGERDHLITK
UniProt P06756, 891-1048 limits assumed: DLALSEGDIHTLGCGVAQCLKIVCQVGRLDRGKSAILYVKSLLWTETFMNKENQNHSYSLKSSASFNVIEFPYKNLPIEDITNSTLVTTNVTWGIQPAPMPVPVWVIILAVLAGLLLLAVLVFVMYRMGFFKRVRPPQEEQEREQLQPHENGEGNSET
UniProt O14907, 9-120 limits assumed: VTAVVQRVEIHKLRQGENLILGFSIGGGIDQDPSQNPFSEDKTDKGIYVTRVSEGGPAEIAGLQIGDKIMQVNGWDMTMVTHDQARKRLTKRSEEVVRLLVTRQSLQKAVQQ
UniProt P31751, whole entry: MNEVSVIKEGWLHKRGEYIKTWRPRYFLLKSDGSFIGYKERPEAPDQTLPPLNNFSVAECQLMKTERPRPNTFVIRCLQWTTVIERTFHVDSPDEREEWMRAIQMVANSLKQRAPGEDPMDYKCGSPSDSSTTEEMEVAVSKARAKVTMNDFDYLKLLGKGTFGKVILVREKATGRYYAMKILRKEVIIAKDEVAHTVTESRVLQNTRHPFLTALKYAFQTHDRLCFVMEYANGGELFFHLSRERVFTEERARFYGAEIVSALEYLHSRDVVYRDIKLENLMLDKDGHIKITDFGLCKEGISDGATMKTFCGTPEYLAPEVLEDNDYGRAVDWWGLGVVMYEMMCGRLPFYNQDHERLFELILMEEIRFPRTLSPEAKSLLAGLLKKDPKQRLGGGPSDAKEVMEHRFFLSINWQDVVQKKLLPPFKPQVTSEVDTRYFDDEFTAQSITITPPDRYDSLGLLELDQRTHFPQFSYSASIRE
UniProt P08253, 110-660 limits assumed: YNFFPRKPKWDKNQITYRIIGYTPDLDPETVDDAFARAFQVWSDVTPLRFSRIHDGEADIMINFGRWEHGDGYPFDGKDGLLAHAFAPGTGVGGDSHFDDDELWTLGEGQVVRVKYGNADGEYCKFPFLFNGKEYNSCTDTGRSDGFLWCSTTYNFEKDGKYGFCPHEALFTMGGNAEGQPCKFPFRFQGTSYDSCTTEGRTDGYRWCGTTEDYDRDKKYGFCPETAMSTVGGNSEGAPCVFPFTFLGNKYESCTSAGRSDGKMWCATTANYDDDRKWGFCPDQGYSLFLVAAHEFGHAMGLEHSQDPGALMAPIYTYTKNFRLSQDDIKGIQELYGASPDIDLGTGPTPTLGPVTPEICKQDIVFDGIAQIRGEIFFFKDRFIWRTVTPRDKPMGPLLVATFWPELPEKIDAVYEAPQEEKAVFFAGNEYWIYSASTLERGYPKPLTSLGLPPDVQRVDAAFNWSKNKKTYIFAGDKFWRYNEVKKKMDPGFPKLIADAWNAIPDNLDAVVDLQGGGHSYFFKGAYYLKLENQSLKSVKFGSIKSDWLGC
UniProt P30405, whole entry, looked up: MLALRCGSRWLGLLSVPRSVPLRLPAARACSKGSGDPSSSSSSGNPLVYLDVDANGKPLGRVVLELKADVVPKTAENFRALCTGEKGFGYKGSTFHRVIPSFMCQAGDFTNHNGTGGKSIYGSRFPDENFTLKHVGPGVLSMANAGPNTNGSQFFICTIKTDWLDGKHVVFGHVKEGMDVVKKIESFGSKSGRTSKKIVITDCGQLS
UniProt Q01727, whole entry: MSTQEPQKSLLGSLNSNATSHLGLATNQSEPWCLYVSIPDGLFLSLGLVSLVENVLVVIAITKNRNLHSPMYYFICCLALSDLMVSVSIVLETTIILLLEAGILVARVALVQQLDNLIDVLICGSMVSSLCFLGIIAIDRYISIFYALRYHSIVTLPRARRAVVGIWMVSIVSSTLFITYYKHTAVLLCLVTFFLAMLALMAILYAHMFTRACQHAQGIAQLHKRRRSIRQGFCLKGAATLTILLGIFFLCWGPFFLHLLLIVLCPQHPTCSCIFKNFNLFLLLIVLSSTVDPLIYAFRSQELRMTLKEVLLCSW

| SMILES | target | assay | test system | conditions | measurement | value |
| --- | --- | --- | --- | --- | --- | --- |
| NC(=O)CC[C@H](NC(=O)[C@@H]1CCCN1C(=O)[C@@H](N)Cc1c[nH]cn1)C(=O)O | Streptavidin (Streptomyces avidinii, UniProt P22629) | – | – | – | Kd | > 100000 nM |
| N=C(N)NCCC[C@@H]1NC(=O)[C@H](CCCCNC(=O)CCOCCOCCOCCOCCNC(=O)CC[C@H](NC(=O)CCOCCOCCOCCOCCNC(=O)c2ccc(NN)nc2)C(=O)NCCOCCOCCOCCOCCC(=O)NCCCC[C@@H]2NC(=O)[C@@H](Cc3ccccc3)NC(=O)[C@H](CC(=O)O)NC(=O)CNC(=O)[C@H](CCCNC(=N)N)NC2=O)NC(=O)[C@@H](Cc2ccccc2)NC(=O)[C@H](CC(=O)O)NC(=O)CNC1=O | Integrin alpha-V/beta-3 (Homo sapiens, UniProt P05106+P06756) | binding | – | – | IC50 | 51 ± 7 nM |
| CC[C@H](C)[C@H](NC(=O)[C@@H](NC(=O)[C@H](CO)NC(=O)[C@@H](NC(=O)[C@@H]1CCCN1C(=O)[C@H](Cc1c[nH]c2ccccc12)NC(=O)[C@H](CCCNC(=N)N)NC(=O)[C@H](CO)NC(=O)[C@H](CC(N)=O)NC(=O)[C@H](C)NC(=S)Nc1ccc2c(c1)C(=O)OC21c2ccc(O)cc2Oc2cc(O)ccc21)[C@@H](C)O)[C@@H](C)CC)C(=O)O | Tax1-binding protein 3, PDZ domain (TAX1BP3, Homo sapiens, UniProt O14907) | binding, fluorescence polarization | – | fluorescent reporter peptide | Kd | 200 nM |
| CC(C)C[C@@H](NC(=O)[C@@H](CCCCN)NC(=O)[C@H](NC(=O)[C@@H](CCCCN)NC(=O)[C@H](N)Cc1c[nH]c2ccccc12)C(C)C)C(N)=O | RAC-beta serine/threonine-protein kinase, phosphorylated (AKT2, Homo sapiens, UniProt P31751) | binding, binder | p-Ser474 epitope peptide | near p-Ser474 site | EC50 | 3600 nM |
| CC[C@H](C)[C@H](NC(=O)[C@H](CCCCN)NC(=O)[C@H](CO)NC(=O)[C@H](CC(=O)O)NC(=O)[C@H](CCCCN)NC(=O)[C@H](CCCCN)NC(=O)CNC(=O)[C@H](Cc1c[nH]cn1)NC(=O)[C@@H](N)CCC(N)=O)C(=O)N[C@H](C(=O)N[C@@H](CC(=O)O)C(=O)N[C@@H](Cc1c[nH]cn1)C(=O)N[C@@H](Cc1ccccc1)C(=O)N[C@@H](CCSC)C(=O)N[C@@H](CCCNC(=N)N)C(=O)N[C@@H](CC(C)C)C(=O)N1CCC[C@H]1C(=O)N[C@@H](CCCCN)C(=O)N[C@@H](C)C(=O)O)[C@@H](C)O | PCNA | binding | – | – | Kd | 3300 nM |
| CC(C)C[C@H](NC(=O)[C@@H]1CCCN1)C(=O)NCC(=O)N[C@H](C(=O)N[C@@H](CCCNC(=N)N)C(=O)O)C(C)C | MMP2 (Homo sapiens, UniProt P08253) | substrate | – | – | Km | 290 µM |
| CSc1ccccc1[C@H]1CCCN1C(=O)CNC(=O)NCc1ccc(N)cc1 | PPIF (Homo sapiens, UniProt P30405) | – | – | – | Kd | 285 nM |
| CC[C@H](C)[C@H](NC(=O)[C@H](CCCCN)NC(=O)[C@H](CCCNC(=N)N)NC(=O)[C@H](CCSC)NC(=O)[C@H](CO)NC(=O)[C@@H](N)CO)C(=O)N[C@@H](CS)C(=O)N[C@H](C(=O)N[C@@H](Cc1ccc(O)cc1)C(=O)N[C@@H](Cc1ccccc1)C(=O)N[C@@H](Cc1c[nH]cn1)C(=O)N[C@@H](CCCNC(=N)N)C(=O)N[C@@H](CCCCN)C(=O)N[C@@H](CO)C(=O)O)[C@@H](C)O | PCNA | binding | – | – | Kd | 57 nM |
| CC[C@H](C)[C@H](NC(=O)[C@@H](NC(=O)[C@H](CO)NC(=O)[C@@H](NC(=O)[C@H](CCC(N)=O)NC(=O)[C@H](Cc1c[nH]c2ccccc12)NC(=O)[C@H](CCCNC(=N)N)NC(=O)[C@H](CO)NC(=O)[C@H](CC(N)=O)NC(=O)[C@H](C)NC(=S)Nc1ccc2c(c1)C(=O)OC21c2ccc(O)cc2Oc2cc(O)ccc21)[C@@H](C)O)[C@@H](C)CC)C(=O)O | GOPC (Homo sapiens, UniProt Q9HD26) | binding, fluorescence polarization | – | fluorescent reporter peptide | Kd | 1030 nM |
| CCCC[C@@H]1NC(=O)[C@@H](NC(=O)[C@H](CCC(=O)O)NC(=O)CNC(=O)CN2CCN(CC(=O)O)CCN(CC(=O)O)CCN(CC(=O)O)CC2)CCCCNC(=O)C[C@@H](C(N)=O)NC(=O)[C@H](C(C)C)NC(=O)[C@@H]2CCCN2C(=O)[C@H](CCCNC(=N)N)NC(=O)CNC(=O)[C@H](Cc2c[nH]c3ccccc23)NC(=O)[C@H](CCCNC(=N)N)NC(=O)[C@@H](Cc2ccccc2)NC(=O)[C@H](Cc2c[nH]cn2)NC(=O)[C@H](CCC(=O)O)NC1=O [isotope labelled] | Mc1r (Mus musculus, UniProt Q01727) | receptor binding | B16-F1 | – | IC50 | 0.8 nM |
| CC[C@H](C)[C@H](NC(=O)[C@H](CO)NC(=O)[C@@H](NC(=O)[C@H](CCC(N)=O)NC(=O)[C@H](CCCNC(=N)N)NC(=O)[C@H](CC(N)=O)NC(=O)[C@H](C)NC(=O)[C@@H](N)CCCCN)C(C)C)C(=O)N[C@H](C(=O)NCC(=O)N[C@@H](Cc1ccccc1)C(=O)N[C@@H](Cc1ccccc1)C(=O)N[C@@H](CCC(N)=O)C(=O)N[C@@H](CCCNC(=N)N)C(=O)N[C@@H](CCCCN)C(=O)O)[C@@H](C)O | PCNA | binding | – | – | Kd | 15600 nM |

For quick reference, copied from above:
| SMILES | target | assay | test system | conditions | measurement | value |
| --- | --- | --- | --- | --- | --- | --- |
| CSc1ccccc1[C@H]1CCCN1C(=O)CNC(=O)NCc1ccc(N)cc1 | PPIF (Homo sapiens, UniProt P30405) | – | – | – | Kd | 285 nM |
